Published values from different studies.
Each numbered part is a random draw from the data of one study; scales do not carry over between parts. Positions count from the first letter of the parent shown.

Set 1
Target: ABI1, truncated, D143A, DHFR fusion (Arabidopsis thaliana)
Technique: DHFR PCA, deep sequencing
Matrix: yeast
Notes: methotrexate growth selection, single substitutions
Added: (+)-ABA 0.39 µM
Relative to: wild-type fitted maximum
Direction: higher = stronger binding
Starting sequence: PYL1, truncated, DHFR fusion (Arabidopsis thaliana); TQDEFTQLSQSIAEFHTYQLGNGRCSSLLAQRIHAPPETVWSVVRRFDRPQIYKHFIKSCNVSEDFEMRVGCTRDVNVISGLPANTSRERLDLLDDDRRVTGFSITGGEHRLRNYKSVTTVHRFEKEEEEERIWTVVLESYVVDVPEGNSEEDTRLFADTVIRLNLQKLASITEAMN; partner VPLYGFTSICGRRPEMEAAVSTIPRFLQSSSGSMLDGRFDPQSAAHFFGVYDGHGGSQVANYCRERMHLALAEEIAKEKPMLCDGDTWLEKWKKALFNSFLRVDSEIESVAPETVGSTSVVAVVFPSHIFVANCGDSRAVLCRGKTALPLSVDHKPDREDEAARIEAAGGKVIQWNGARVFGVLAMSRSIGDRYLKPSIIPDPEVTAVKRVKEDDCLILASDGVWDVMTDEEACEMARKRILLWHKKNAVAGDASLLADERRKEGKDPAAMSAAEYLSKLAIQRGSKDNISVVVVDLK
Change | relative binding score [%]
V137H | -3.69
Q19H | 44.5
R98G | -1.85
M176G | 31.9
V118W | -7.78
E151Q | 28.7
D97S | 38
I172D | -16.2
I133W | 20.3
L93R | 13
E174Y | -6.38
A158Q | 13.9
I79D | 6.38

Set 2
Substance: PhoQ, residues 284 288 289 292 302 303 SMMNNA
Technique: Sort-seq
Measured: YFP reporter
Matrix: E. coli
Notes: PhoQ-PhoP variant library
Added: 10 µM Mg2+
Relative to: high Mg2+ state
Direction: higher = stronger signaling
target | fold induction
PhoP, residues 12 14 15 18 19 HHYTI (Escherichia coli, UniProt P23836) | 0.648
PhoP, residues 12 14 15 18 19 AYFRS (Escherichia coli, UniProt P23836) | 4.88
PhoP, residues 12 14 15 18 19 SFCSL (Escherichia coli, UniProt P23836) | 15.5

Set 3
Target: CCNA1, cyclin fold, Cln2 fusion (human)
Technique: yeast growth competition, sequencing
Matrix: yeast
Notes: weak parent motif
Relative to: not given
Direction: higher = stronger binding
Starting sequence: SAMHD1 docking peptide (human); ASKSRVQLFKDDP
Change | normalised enrichment score
ASKSRVQLTKDDP [F9T] | 0.508
ASKSRVQLFKDVP [D12V] | 0.444
ASKSRHQLFKDDP [V6H] | -0.339
ASKSRVQLDKDDP [F9D] | 0.195
AAKSRVQLFKDDP [S2A] | 0.5
ASKSRVQLCKDDP [F9C] | 0.129
ASNSRVQLFKDDP [K3N] | -0.0663
ASKSRVQLFWDDP [K10W] | -0.132
ASKSRRQLFKDDP [V6R] | 1.31
ASKSRDQLFKDDP [V6D] | -0.253
ASKSRVQEFKDDP [L8E] | 0.388
AVKSRVQLFKDDP [S2V] | 0.633
ASKSREQLFKDDP [V6E] | 0.0818
ASKSRMQLFKDDP [V6M] | 0.544
ASKSRVQAFKDDP [L8A] | -0.0975
ASKSRVTLFKDDP [Q7T] | 0.256
ASKDRVQLFKDDP [S4D] | 0.207
ASKSRVQLFKDGP [D12G] | 0.0657
ASKSRVQLQKDDP [F9Q] | 0.0389
ASKIRVQLFKDDP [S4I] | 0.624
AMKSRVQLFKDDP [S2M] | 0.205

Set 4
Target: Histone acetyltransferase KAT6A, winged helix 2, GST fusion (KAT6A, Homo sapiens, UniProt Q92794, residues 85-181)
Technique: protein binding microarray
Form: double-stranded DNA, one strand shown
Matrix: in vitro
Concentration: not given
Notes: 8-mer, flanks averaged, mean of 2 arrays, mostly near background
Relative to: not given
Direction: higher = stronger binding
Residues (chain): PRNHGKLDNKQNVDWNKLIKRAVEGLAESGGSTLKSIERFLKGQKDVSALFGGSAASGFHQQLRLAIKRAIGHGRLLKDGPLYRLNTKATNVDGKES
Strand | E-score
AACCTTCC | -0.148
TCTGATCA | 0.105
GTGCACCA | -0.0189
ACTAAACA | -0.111
CTCGAAAC | 0.14
ATCAACCC | 0.0563
CAGTAAAG | -0.1
AAATTAAT | 0.172
CGCTAAAA | -0.0687
AGAATTCT | 0.206
AAGAACTA | 0.0646
CAATGAGC | -0.00165
CGAGTTTC | 0.0447
ACAGCACT | 0.0686
CTTCCATC | -0.0387
ATCGGATG | 0.00602
CGCCGCTC | 0.177
CAGACGTC | -0.149
ATCCTCAA | -0.0301

Set 5
Target: Interferon regulatory factor 3, full length, phosphomimetic (IRF3, Homo sapiens, UniProt Q14653, residues 1-427, S386D/S396D/S398D/S402D/T404D/S405D)
Sequence of UniProt Q14653 (whole entry, unmodified, looked up): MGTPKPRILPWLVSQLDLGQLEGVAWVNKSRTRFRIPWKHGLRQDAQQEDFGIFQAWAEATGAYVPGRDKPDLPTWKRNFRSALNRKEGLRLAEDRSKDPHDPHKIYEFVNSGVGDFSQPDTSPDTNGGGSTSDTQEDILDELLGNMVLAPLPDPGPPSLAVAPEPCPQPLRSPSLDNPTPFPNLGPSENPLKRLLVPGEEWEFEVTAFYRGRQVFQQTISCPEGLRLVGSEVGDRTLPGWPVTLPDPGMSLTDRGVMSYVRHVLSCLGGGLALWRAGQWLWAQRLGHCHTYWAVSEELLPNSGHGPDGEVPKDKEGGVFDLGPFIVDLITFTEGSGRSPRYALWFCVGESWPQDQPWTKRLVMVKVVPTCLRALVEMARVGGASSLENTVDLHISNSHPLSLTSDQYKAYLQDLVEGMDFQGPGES
Technique: protein-binding microarray
Form: double-stranded DNA, one strand shown
Matrix: in vitro
Concentration: 2540 nM top
Notes: 60-bp whole probe
Added: salmon DNA 0.4 mg/ml
Relative to: random background probes
Direction: higher = stronger binding
All sequences stand within: GCCTAGCAC … GTCTTGATTCGCTTGACGCTGCTG
Strand | fitted relative affinity [z-score]
GACGGACTGCTACTTCTGACGTGCTAG | -0.347
GACGGACTGGGGTACCGGGACGTGCTA | -0.753
GGCAATTTGAGTCACTGTGTGTGCTAG | -0.847
GACGATCTCAGACTGGATACGTGCTAG | 0.519
TGGCCTCTAGGTTTTCTGGAGTGCTAG | -1.41
TTGGGTCTCCTTTTCCTTTAGTGCTAG | 4.15
GACGGTATCCTTTTCCTAACGTGCTAG | 7.95
TTATATTTCAGACTGGATTAGTGCTAG | 0.736
TCACACATATAATTTTGTACTGTGCTA | 0.0483
TCATTTTGAGTTTTCCTACTGTGCTAG | 2.08
TTAGATATCGGTCTCGATTAGTGCTAG | 1.63
GACGGTTTCGGGTTTGGGGACGTGCTA | 5.15
ATATATATTATATATACACATGTGCTA | 0.789
GTTTTTTAAAGTTTCAGTGAGTGCTAG | 1.37
GACGGTCTCTTTATCCTGACGTGCTAG | 1.03
GACGGACTGGACTTTCGGGAGGTGCTA | -0.154
GTAGGTATCGGGACTGGGTTAGTGCTA | 1.24
TTAGCTTTCAGTTCCGATTAGTGCTAG | 3.88
CTCGTTTACATTTTCCAAATGTGCTAG | 3.13
GCTCTCTTCTGCTTCCTCAGGTGCTAG | 1.2
GACAGTATCGGTTTCGGGACGTGCTAG | 7.81
GACGGACTGGGGTATCGGGGCGTGCTA | -0.731
GACCGTTCCGGTTTCGGGACGTGCTAG | 5.71
GACCGTTTCCTTATCCTGACGTGCTAG | 6.24
TCAAGTTTCCCTCCCTGACTGTGCTAG | 4.83

Repeated from above (set 4):
Strand | E-score
ATCGGATG | 0.00602
ATCAACCC | 0.0563
CTTCCATC | -0.0387
CAGACGTC | -0.149
AACCTTCC | -0.148
AAGAACTA | 0.0646
CTCGAAAC | 0.14
ATCCTCAA | -0.0301
CGCCGCTC | 0.177
ACTAAACA | -0.111
AGAATTCT | 0.206
CAGTAAAG | -0.1
